# Results collected from several papers.
# Each numbered part is a random draw from the data of one study; scales do not carry over between parts.

# Set 1
# Target: RING finger protein unkempt homolog, zinc fingers 1-6, SBP tag (UNK, Homo sapiens, UniProt Q9C0B0, residues 30-357)
# Sequence of UniProt Q9C0B0 (30-357, looked up): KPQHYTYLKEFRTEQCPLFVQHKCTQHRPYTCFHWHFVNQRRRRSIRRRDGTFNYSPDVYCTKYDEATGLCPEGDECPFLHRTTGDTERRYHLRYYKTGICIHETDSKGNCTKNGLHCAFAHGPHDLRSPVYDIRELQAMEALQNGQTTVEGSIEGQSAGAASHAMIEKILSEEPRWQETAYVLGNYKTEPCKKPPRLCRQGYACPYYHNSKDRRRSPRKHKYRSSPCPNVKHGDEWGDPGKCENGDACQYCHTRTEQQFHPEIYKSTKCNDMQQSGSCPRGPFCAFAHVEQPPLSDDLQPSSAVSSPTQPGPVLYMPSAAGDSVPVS
# Method: RNA Bind-n-Seq
# Form: RNA
# Medium: in vitro
# Tested at: 100 nM
# Setting: RNA with constant flanks, vertebrate orthologous sites, ends assumed
# Baseline: input RNA pool
# Reading: higher = stronger binding
Oligonucleotide,bound/input enrichment [ratio]
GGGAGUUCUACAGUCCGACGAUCAGUAGUUUUAAGCUUGUUUGCACAGUUAUUUUUUUCCAUUGGAAAUGGAAUUCAUUGCCUUAGGUCUUUUUAAAUAGUGUAUUAUCGUUGGGGCUGGCUCUAUGCUUGAAAACCAGUUUACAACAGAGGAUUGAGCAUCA,3.04
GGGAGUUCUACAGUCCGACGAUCGGGCGGCCCGUGGGGGAAUUCCCUGCCUUGGCCUUACCUCCCCUUCCUGCCACUUGCCCCUAGUUAUUUUUUUUUUUACCACCAUGUGAUUAAGGUCGGCGCUGCCUCCCCCGACCCACUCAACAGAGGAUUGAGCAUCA,6.69
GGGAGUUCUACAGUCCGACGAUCACCAGUUUGUAUGUACAUUAUUCACAUUCCUCUCUGUUGUGUUUAGAAAAAAAAGACAUUUUAGCCUUUUUUAAGGUUACUGAUUUAAUUUAAUGUUACUUGGUUGCAUGAAGUUGCCCUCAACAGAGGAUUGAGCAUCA,0.592
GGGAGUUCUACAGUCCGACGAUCGCACAUGCCGCUCUCACCAAAAGCAAACUGCCACUUAUCAAAUUUCAUUCAGAGUUGUUUUAGUGUUUCCUAUUCCCUACCCUUCCCCCUCCUUUCAAUGCUGAAAUAUCCUAAGUUGUCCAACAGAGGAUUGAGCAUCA,1.93
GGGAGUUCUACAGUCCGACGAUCCAGUCAUGGAGAAAAACAUAUUAAAAUAACUUCAUGGCACUGAUGUUAAUUCUAGUCUAUUAGUUUUAUAAAAGUUAGGAUUCUUAUUUAGGAACAACAGGAAAUGACUGUUAAGGAGAACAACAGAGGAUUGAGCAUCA,0.823
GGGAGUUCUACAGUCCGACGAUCUAUGUGUUGGUGCAGCGUGCUCUGUACCAGUGUUCAUCAUCCCUUCAUACCAACUGUCCCUAGUUAUAGGAAUUUAAUAUUUUUAAAAGUUUUACAUUGCUGUAUAUUCAAAGAUUUGUUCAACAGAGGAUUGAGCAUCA,1.03
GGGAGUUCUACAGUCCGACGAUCAUGUCUAGUGCUUAAGCCAGCAAUUAUAGAAUGCUAUUUAUUUAUGUCUAAGUUUGUACAUAUCUUAACCUCAUUGUUGCUGAGUUUCAUUUUAAGGAAGGCAAGUUUGAGUUUUAUUUCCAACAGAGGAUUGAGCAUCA,0.611
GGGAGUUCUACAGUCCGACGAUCAAAUCAGCCCCAGUUUCUAACAACUGACACCCUAAAGAUUUAGAGGUUUACAACACAAUCUAGUUUACGAAGAAAUCUUGUGCUAGAAUACUUUUUAAAGUAUUUUUGAAUAUCCUUAAACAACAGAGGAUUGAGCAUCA,0.47

# Set 2
# Target: Myc proto-oncogene protein, bHLH-zipper, MAX partner unstated (MYC, Homo sapiens, UniProt P01106, residues 368-449)
# Sequence of UniProt P01106 (368-449, looked up): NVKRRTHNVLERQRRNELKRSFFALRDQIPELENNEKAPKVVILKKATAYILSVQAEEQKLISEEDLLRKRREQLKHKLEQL
# Method: protein-binding microarray
# Form: double-stranded DNA, one strand shown
# Medium: in vitro
# Tested at: not given
# Setting: k-mer, scored over probes, only values ≥0.25
# Reading: higher = stronger binding
Oligonucleotide,E-score
CCCGCCCC,0.388
CCCCCACG,0.374
CCACGTGG,0.499
ATGAGGGA,0.301
ATGTGGGG,0.257
GTGGGCGA,0.291
ATGCTTTG,0.264
CATGAGCA,0.254

# Set 3
# Target: HLA class I histocompatibility antigen, A alpha chain, allele A*25:01 (Homo sapiens, UniProt P04439)
# Read-out: peptide-MHC binding
# Form: peptide
# Tested at: concentration not given
Molecule,binding
DHIPIINTL,inactive
NTAINFFLY,inactive
RAWDPQPAM,inactive
IVDCLTEMYY,inactive
RLKHIFLIF,inactive
QLEVRSTEV,inactive
MPFDPSELV,inactive
GLSFLNPEK,inactive
MSQMPPHPY,inactive
WMFRIRIIL,inactive
DTWHGFKNM,inactive
KSRQGDTKV,inactive
SQFNHWFGE,inactive
EKDSNHNVL,inactive
PLFPGITRV,inactive
FLAAECPFL,inactive
FQWHEAMFL,inactive

# Further values, each from its own experiment
# Target: D(1B) dopamine receptor (DRD5, Homo sapiens, UniProt P21918)
# Read-out: binding
# Method: radioligand binding
# Tested at: 10 µM
SMILES,inhibition [%]
Cc1c(N2CCCC2)nc2ccc(Br)cc2c1C(=O)NC[C@H](CCC(=O)O)c1ccccc1Cl,25
CC(=O)c1c(NS(C)(=O)=O)c2cc(-c3ccc(Cl)cc3)c(-c3ccc(Cl)cc3Cl)nc2n(C)c1=O,44.5

# Excerpt of the above (set 3):
Molecule,binding
IVDCLTEMYY,inactive
KSRQGDTKV,inactive
DTWHGFKNM,inactive
WMFRIRIIL,inactive
